# Published values of several laboratories.
# Numbers after ± are the reported error.
SMILES,assay,system,conditions,half-life
Fc1ccc(-c2nn3cc(F)ccc3c2-c2ccncc2)cc1,,CD1 mouse female,"oral, 25 mg/kg",25.7 h
CN[C@H](CC(C)C)C(=O)N[C@H]1C(=O)N[C@@H](CC(N)=O)C(=O)N[C@H]2C(=O)N[C@H]3C(=O)N[C@H](C(=O)N[C@H](C(=O)O)c4cc(O)cc(O)c4-c4cc3ccc4O)[C@H](O)c3ccc(c(Cl)c3)Oc3cc2cc(c3O[C@@H]2O[C@H](CO)[C@@H](O)[C@H](O)[C@H]2O[C@H]2C[C@](C)(N)[C@H](O)[C@H](C)O2)Oc2ccc(cc2Cl)[C@H]1O,mass spectrometry,"male C57BL/6J mouse, plasma","intravenous bolus, 35 mg/kg",~1.86 h
Cc1ncccc1-c1cnc(NCc2c(F)ccc3c2CCO3)n2cnnc12,,"female CB17 SCID mouse, HT-1376 xenograft, plasma","75 mg/kg, day 1",1.18 h
CCC/C(=C\C1=C(OC)C(=O)c2ccccc2C1=O)C(=O)N(CC)CC,,"mouse, male, eye","intravitreal, 10 µM",1.11 h
Fc1ccc(-c2nc3cc(F)ccn3c2-c2ccncc2)cc1,,CD1 mouse female,"oral, 25 mg/kg",10.1 h
CCOC(=O)C1=C(CN2CCC[C@@H]2C(=O)Nc2ccc(B(O)O)cc2)NC(c2nccs2)=N[C@H]1c1ccc(F)cc1Br,,"ICR mouse, plasma","oral, 10 mg/kg",0.66 ± 0.34 h
Nc1nnc(-c2ccccc2O)cc1N1CCN(Cc2ccc(OCCOCCNc3cccc4c3C(=O)N(C3CCC(=O)NC3=O)C4=O)c(F)c2)CC1 (stereo not drawn),,"mouse, plasma","intraperitoneal, 50 mg/kg single dose, with: ritonavir 12.5 mg/kg",~5 h
CN1CCCC1CCNS(=O)(=O)c1ccc2c(c1)CN(CC1CCCCC1)CC2 (stereo not drawn),,"mouse, brain","oral, 10 mg/kg",15 h
NCc1cc2c(cc1F)C(=O)N(C1CCC(=O)NC1=O)C2 (stereo not drawn),,"male CD-1 mouse, whole blood",,> 3 h
O=C(O)C[C@H](O)C[C@H](O)/C=C/c1c(C2CC2)nc2ccccc2c1-c1ccc(F)cc1,,"FVB wild-type mouse, plasma","oral, 5 mg/kg",3.1 h
O=C(O)Cc1ccccc1Nc1c(Cl)cccc1Cl,,"mouse CD-1, liver microsomes","1 µM, pH 7.4",0.197 h
c1csc(CNc2cc[nH]n2)c1,,"male CD-1 mouse, plasma","oral, 20 mg/kg, hydrochloride salt",0.46 h

# Some of these lines once more:
SMILES,assay,system,conditions,half-life
NCc1cc2c(cc1F)C(=O)N(C1CCC(=O)NC1=O)C2 (stereo not drawn),,"male CD-1 mouse, whole blood",,> 3 h
O=C(O)C[C@H](O)C[C@H](O)/C=C/c1c(C2CC2)nc2ccccc2c1-c1ccc(F)cc1,,"FVB wild-type mouse, plasma","oral, 5 mg/kg",3.1 h
